# Measurements pooled from the literature.
# Parts stem from different laboratories: compare values within a part only.

# Study 1
# Target: POU domain, class 5, transcription factor 1, POU domain (Pou5f1, Mus musculus, UniProt P20263, residues 131-289)
# Sequence of UniProt P20263 (131-289, looked up): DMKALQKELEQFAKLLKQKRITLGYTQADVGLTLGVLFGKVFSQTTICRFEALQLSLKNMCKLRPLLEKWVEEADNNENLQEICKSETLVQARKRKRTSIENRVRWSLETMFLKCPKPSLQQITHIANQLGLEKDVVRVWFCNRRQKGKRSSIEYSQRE
# Technique: Spec-seq
# Form: double-stranded DNA, one strand shown
# Medium: in vitro
# Tested at: not given
# Notes: whole probe, mean of replicates
# Reference: not given
# Reading: lower = stronger binding
# All sequences stand within: GAGTCGTCTCGTCAGCAC … CCGTAGAGCACTCAGGTC
Oligonucleotide,relative binding energy [ln ratio]
TTAATAAT,-0.287
TTAGTAAT,0.273
ATGCGATC,0.43
ATGCTTTT,0.372
ATCAAAAT,-0.163
ATGCGAAC,0.302
ATGCTAAG,0.0519
CGGGTAAT,0.951
ATCGGGAT,0.634
ATATCTAT,0.117
ATGCGATG,0.364
AGATTAAT,0.104
ATGCGTTA,0.164
ATCGCCAT,0.544
ATTTCCAT,-1.21
ATGCCCTC,0.649
ATGCCTCC,0.725
ATGCTTAT,-0.109
ATATAGAT,0.289
ATGCGATT,0.0107
ATGCTCGT,0.732
GCGCTAAT,0.495
ATGGCAAT,0.58
TAAGTAAT,0.331
ATGAGAAT,0.253

# Study 2
# Target: RNA binding protein fox-1 homolog 2, RRM domain, GST-SBP tag (RBFOX2, Homo sapiens, UniProt O43251-10, residues 100-194)
# Technique: RNA Bind-n-Seq
# Form: RNA
# Medium: in vitro
# Tested at: 365 nM
# Notes: natural RNA segment, single round, ends assumed
# Reference: no-protein control
# Reading: higher = stronger binding
# All sequences stand within: GGGAGUUCUACAGUCCGACGAUC … UGGAAUUCUCGGGUGCCAA
# Target sequence (chain): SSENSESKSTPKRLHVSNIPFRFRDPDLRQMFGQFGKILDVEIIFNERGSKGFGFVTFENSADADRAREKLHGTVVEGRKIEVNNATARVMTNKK
Oligonucleotide,RBNS enrichment (R)
CCAUUGGUUUCUGGCCCUUUCAGGCUACAACCCCCCAGCCUUGCAGGUGUCAGAACAGUCUCACAAUGACAUCAGUUUAGACACAUGCCAUAUACACUUGGAUCUCUGAG,0.312
GUUCUGUAUAAUUGAUAGUACAAGUGUGGACCCUUAUAUUUCUAACAGUUCAUUGCUUUGGAAUGGCCGUGAAAGAGAUCUAACUGUGGAUGCUUACUGAGGCUUGUAUG,0.952
AAAACACUUAUAGCCUUAAACCAUUCAAGGGCUAAUUAAAAAAAUAGUUAUGAAAUCUUAGCCACAAAAAAUAAAUCAGGUAAACAUUUUAACCUGUCGUUAAGUGUUGU,1.2
UAUGGUAUCUGUGCUUUUGGCUGGGUAAAAGUACAGCCAGAGACGGCUUACUGGGUUUAGAAUGGAAACAACAUUCACUACUGUUCAGUGCAUGCUGGUACAAUCUCUUA,0.573
UAAACUGCACUGAGUCUCUUGCCAAGAAGCAAUGCUUUUUUUGUGAAGGCCACUCAGAGCAUCUUGCAGUCACAGCUGUUCCUGAGCCUGAGGCCAGAAGAUUCCCUAAC,0.244
CUGUCAGAGCCCACCUAGAAGCAGGCUCCUAGUGAUACUUUGUUUCCAAGGCAGAAGUGGCCCAUGAGUGGCCCCAGAGCAGAGGUGCCCCAGGCAGUGCAGCUCCCUGG,0.29
UAUUACAAGCUGCAUGUCCUGACCCUCUUUGAAUUAAGUGGACUGUGGCAUGACAUUCUGCAAUACUUUGCUGAAUUGAACACUAUUGUGUCUUAAAUACUUGCACUAAA,0.723
UGUUUUCAGCUACUUGCAAAUCUUCCUGGUCGAAAGUUAGUAGGAUAUGCCUGCUCUUUGGCCUGAUGACGAAUUUCAACUUUGAAACAUUUUCUUUUGUCCUCCCCAAA,0.3
AUAUUUAUGCUGUCUGAAGGUCACGAUCAUGUUACCAUAUCAAGCUGAAAAUGUCACCACUAUCUGGAGAUUUCGACGUGUUUUCCUCUCUGAAUCUGUUAUGAACACGU,0.678
UGUGGCUGUGGGGUAUAGCACCCUCACCCUAGCUGCCUGGAAGCCAGUAUCCUGCGAGCAGCCUUCAGAUGAAGAUGCAGAACUCUCACCUUCUCCUGCACCAUGCCUGC,2.94
UGAUGUCGCAUUAUAAAGACAUGCAUAAUUGAUGGUUUCUAGAUUAUCUAGUCCAAACAAUAGAGUUUAUUUUUUCUUCAUCUGAACCAACAUGCUACAGUAGCUAAGAA,0.426
UUUCCAUGGUAGCGUGAGCAUUAGGUGACGUGGCUAGCGGAGGACUACCCUUGCUCACUGACUUCCUGUUGUAACACACUUUCCUUACGGAGCCUGGCUGUUUCACAGUA,0.516

# Study 3
# Target: Interferon regulatory factor 7, full length, phosphomimetic (IRF7, Homo sapiens, UniProt Q92985, residues 1-503, S101K/S471D/S472D/S475D/S476D/S477D/S483D/S484D/S487D)
# Technique: protein-binding microarray
# Form: double-stranded DNA, one strand shown
# Medium: in vitro
# Tested at: 250 nM
# Notes: 60-bp whole probe
# Added: salmon DNA 0.4 mg/ml
# Reference: random background probes
# Reading: higher = stronger binding
# All sequences stand within: GCCTAGCAC … GTCTTGATTCGCTTGACGCTGCTG
# Construct (chain): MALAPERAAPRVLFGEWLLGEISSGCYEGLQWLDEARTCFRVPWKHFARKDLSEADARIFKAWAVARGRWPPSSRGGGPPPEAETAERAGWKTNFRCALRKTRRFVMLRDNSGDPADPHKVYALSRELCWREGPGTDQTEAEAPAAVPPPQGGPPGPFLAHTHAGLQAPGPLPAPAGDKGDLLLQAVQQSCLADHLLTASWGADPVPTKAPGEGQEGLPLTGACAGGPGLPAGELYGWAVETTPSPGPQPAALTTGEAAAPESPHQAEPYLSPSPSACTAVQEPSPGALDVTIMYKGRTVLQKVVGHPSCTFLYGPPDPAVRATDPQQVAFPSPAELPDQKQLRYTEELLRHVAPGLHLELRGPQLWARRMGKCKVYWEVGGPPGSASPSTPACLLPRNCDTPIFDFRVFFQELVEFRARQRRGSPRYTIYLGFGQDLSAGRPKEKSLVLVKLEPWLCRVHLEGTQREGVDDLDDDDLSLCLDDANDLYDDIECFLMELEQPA
Oligonucleotide,log fluorescence
GACGGTATCGGGACTGGGTACGTGCTA,-0.203 z-score
GACGGTTTCGGACTGGGGAAGTGCTAG,4.64 z-score
GACGGTTTCCTTATCATGACGTGCTAG,2.4 z-score
TTAGGTCTCCTTATCTTTTAGTGCTAG,0.156 z-score
TTAGGACTGCTTTTCTTTTAGTGCTAG,1.29 z-score
TTAGATTTCAGTATCGATAAGTGCTAG,0.613 z-score
GACGTACTGCTTTTCCTGACGTGCTAG,0.657 z-score
GACGGACTGGACATTCGGGACGTGCTA,-0.492 z-score
GACGCTTCCAGTTTCGAGACGTGCTAG,4.15 z-score
GACGGTTTCCTTTTCCCGACGTGCTAG,7.51 z-score
GACGAACTGTGGTTTCGAGACGTGCTA,3.7 z-score
GACGATTTCATTTCCGAGACGTGCTAG,0.822 z-score
GAGCCTCTGTTTTGAGCACAGTGCTAG,0.489 z-score
GGTCATGTCTGTGTCACAGAGTGCTAG,-0.664 z-score
GACGGACTGGGGTTTCGGGACGTGCTA,1.08 z-score
CTGGTTTTACTTTCTATCTCGTGCTAG,2.99 z-score
TTTTTTTTTTTTTTGGAATGGTGCTAG,0.762 z-score
GACGATCTCAGACTGGAGATGTGCTAG,-0.464 z-score
TTAGGTCTTCTTATCCTTTAGTGCTAG,0.331 z-score
TCAGTTTTCTAATGTTTTACTGTGCTA,1.5 z-score
GACGAACTGAGACTGTAGACGTGCTAG,0.0311 z-score
GATGGTTTCCTTATCCTGACGTGCTAG,3.31 z-score
GACGGTTTCGACTATCTGGACGTGCTA,5.52 z-score
TCATTTTACATTATTACACTGTGCTAG,1.68 z-score
TTAGGTATCGGTTTAGGTTAGTGCTAG,6.05 z-score

# Study 4
# Target: Histone acetyltransferase KAT6A, both winged helices, GST fusion (KAT6A, Homo sapiens, UniProt Q92794, residues 1-181)
# Technique: protein binding microarray
# Form: double-stranded DNA, one strand shown
# Medium: in vitro
# Tested at: not given
# Notes: 8-mer, flanks averaged, mean of 2 arrays, mostly near background
# Reference: not given
# Reading: higher = stronger binding
# Construct (chain): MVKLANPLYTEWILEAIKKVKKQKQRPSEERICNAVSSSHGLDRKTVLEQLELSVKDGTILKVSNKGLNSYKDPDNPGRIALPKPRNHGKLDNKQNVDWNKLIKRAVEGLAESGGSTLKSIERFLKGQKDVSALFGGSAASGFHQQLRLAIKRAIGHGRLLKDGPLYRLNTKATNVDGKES
Oligonucleotide,E-score
CCTGTTCC,-0.0539
TATCAGGA,-0.0669
ATACTCCA,-0.158
AGTGGAAC,-0.0419
CAAGACCC,-0.0803
AATGAGAG,-0.0909
ATAGCTGA,-0.0345
CATAAGCC,-0.0063
GGACATAC,0.0556
CGCGAACC,0.235
ATATAGCA,-0.11
GTGGTTAA,-0.0403
ATACATTC,-0.0803
AGCGATTG,0.0545
GTTTATAA,0.102
ACTTAACG,0.0166
GCCTAGAA,-0.0697
ACTGGCGC,0.148
AGTAACCA,-0.124
ATCACCTG,-0.151
AAAAGCTT,0.157
AAAAACAT,-0.0379
ATACGCTG,0.106
CGCTTGCA,0.122
CCCGCTGA,0.152

# Repeated from above (study 4):
Oligonucleotide,E-score
GCCTAGAA,-0.0697
ACTGGCGC,0.148
AGTAACCA,-0.124
ATCACCTG,-0.151
AAAAGCTT,0.157
AAAAACAT,-0.0379
ATACGCTG,0.106
CGCTTGCA,0.122
CCCGCTGA,0.152
